Results of several laboratories.
Each line is one published result; not all experiments were run side by side. Numbers after ± are the reported error.
Tubulin alpha-1B chain/TUBB2B: Tubulin alpha-1B chain/TUBB2B (Bos taurus, UniProt P81947+Q6B856)
Chain of UniProt Q6B856 (whole entry, looked up): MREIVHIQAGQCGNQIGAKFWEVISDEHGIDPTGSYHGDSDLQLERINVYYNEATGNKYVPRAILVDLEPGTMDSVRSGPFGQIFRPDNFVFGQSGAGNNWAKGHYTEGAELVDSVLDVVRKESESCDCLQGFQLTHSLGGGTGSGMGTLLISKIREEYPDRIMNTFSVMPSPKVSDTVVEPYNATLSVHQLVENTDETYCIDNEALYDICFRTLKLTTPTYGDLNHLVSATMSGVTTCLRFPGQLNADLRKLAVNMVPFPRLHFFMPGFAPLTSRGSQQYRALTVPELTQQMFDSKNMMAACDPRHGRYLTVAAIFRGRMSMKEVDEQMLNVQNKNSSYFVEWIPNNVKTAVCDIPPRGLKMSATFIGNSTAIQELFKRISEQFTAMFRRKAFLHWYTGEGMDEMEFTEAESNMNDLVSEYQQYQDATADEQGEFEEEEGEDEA
Chain of UniProt P81947 (whole entry, looked up): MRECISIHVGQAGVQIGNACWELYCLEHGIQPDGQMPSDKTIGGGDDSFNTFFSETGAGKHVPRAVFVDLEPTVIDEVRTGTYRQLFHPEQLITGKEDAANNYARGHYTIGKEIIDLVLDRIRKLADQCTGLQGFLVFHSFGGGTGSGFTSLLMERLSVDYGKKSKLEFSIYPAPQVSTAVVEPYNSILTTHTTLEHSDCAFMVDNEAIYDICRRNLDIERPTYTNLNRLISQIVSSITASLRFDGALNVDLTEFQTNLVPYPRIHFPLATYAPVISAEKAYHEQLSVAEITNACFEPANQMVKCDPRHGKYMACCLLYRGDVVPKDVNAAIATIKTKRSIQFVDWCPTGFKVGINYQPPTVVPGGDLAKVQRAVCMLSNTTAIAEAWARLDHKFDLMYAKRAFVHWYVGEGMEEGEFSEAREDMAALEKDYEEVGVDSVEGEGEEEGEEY
Mc1r: Melanocyte-stimulating hormone receptor (Mc1r, Mus musculus, UniProt Q01727)
Chain of UniProt Q01727 (whole entry, looked up): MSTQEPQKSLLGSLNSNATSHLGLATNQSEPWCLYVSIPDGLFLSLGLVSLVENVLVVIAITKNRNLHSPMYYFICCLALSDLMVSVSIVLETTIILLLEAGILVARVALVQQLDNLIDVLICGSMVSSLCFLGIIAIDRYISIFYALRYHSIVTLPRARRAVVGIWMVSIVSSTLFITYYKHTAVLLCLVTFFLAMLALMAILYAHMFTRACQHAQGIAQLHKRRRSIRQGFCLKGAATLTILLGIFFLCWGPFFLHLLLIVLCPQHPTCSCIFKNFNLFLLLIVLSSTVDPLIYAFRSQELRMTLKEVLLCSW
TLR8: Toll-like receptor 8 (TLR8, Homo sapiens, UniProt Q9NR97)
Chain of UniProt Q9NR97 (whole entry, looked up): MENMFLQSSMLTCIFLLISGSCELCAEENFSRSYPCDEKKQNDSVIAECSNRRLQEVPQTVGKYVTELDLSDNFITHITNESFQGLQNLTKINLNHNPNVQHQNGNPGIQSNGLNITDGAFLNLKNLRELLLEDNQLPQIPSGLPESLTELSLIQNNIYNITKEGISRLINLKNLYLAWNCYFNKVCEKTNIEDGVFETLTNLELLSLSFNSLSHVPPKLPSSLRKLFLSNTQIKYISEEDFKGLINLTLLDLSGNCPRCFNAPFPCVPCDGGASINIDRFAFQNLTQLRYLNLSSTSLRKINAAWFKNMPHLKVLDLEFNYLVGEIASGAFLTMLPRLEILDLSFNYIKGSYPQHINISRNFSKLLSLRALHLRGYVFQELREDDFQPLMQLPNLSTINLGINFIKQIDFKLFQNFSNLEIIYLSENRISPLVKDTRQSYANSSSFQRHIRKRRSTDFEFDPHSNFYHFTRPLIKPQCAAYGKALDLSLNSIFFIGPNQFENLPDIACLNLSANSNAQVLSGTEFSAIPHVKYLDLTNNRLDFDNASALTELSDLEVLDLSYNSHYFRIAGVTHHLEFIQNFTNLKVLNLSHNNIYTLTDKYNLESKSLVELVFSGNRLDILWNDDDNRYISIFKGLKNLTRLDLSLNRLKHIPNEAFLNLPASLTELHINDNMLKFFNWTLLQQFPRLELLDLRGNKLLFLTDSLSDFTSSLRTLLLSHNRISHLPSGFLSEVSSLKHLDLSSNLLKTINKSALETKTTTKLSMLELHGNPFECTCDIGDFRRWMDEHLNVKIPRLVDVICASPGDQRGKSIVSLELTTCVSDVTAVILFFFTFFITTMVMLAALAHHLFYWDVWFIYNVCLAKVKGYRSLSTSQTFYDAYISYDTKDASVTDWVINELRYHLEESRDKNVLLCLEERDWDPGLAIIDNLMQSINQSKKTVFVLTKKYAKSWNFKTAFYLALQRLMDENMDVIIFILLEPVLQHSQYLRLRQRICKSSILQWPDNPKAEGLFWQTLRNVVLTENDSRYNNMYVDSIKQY
DRD2: D(2) dopamine receptor (DRD2, Homo sapiens, UniProt P14416)
Chain of UniProt P14416 (whole entry, looked up): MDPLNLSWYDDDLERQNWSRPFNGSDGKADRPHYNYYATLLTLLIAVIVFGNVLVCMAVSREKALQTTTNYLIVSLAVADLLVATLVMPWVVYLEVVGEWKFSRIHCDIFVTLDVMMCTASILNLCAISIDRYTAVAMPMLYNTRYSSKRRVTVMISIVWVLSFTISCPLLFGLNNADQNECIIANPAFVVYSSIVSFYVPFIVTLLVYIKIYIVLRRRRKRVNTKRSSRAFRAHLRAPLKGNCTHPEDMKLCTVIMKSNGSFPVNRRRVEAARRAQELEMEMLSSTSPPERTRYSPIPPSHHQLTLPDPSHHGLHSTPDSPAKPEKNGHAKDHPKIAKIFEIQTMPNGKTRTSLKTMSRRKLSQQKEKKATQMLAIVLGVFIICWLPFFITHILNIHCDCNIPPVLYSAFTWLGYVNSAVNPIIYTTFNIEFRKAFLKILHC
Ptger2: Prostaglandin E2 receptor EP2 subtype (Ptger2, Rattus norvegicus, UniProt Q62928)
Chain of UniProt Q62928 (whole entry, looked up): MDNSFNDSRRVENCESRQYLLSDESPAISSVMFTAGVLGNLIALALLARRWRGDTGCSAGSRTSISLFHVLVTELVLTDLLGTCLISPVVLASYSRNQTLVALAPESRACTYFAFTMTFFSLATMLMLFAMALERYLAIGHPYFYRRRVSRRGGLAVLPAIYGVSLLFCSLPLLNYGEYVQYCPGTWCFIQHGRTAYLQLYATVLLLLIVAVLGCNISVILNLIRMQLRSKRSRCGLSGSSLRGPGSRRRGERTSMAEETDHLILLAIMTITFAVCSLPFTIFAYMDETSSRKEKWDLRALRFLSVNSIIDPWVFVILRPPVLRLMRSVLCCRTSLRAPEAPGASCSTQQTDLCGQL
HRH3: Histamine H3 receptor (HRH3, Homo sapiens, UniProt Q9Y5N1)
Chain of UniProt Q9Y5N1 (whole entry, looked up): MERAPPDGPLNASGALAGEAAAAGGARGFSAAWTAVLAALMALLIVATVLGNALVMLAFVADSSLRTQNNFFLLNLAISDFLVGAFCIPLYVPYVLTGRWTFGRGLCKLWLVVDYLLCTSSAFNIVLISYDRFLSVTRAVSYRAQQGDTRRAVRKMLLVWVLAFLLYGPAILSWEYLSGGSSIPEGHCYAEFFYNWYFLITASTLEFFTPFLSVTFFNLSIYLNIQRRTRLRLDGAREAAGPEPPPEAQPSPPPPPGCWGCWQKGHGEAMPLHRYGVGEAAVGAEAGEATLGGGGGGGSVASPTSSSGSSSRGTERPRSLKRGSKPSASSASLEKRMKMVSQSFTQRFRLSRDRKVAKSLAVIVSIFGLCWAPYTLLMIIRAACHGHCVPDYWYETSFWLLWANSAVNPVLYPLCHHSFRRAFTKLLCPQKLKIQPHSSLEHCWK
Kcnh1: Kcnh1 (Mus musculus, UniProt Q60603)
Chain of UniProt Q60603 (whole entry, looked up): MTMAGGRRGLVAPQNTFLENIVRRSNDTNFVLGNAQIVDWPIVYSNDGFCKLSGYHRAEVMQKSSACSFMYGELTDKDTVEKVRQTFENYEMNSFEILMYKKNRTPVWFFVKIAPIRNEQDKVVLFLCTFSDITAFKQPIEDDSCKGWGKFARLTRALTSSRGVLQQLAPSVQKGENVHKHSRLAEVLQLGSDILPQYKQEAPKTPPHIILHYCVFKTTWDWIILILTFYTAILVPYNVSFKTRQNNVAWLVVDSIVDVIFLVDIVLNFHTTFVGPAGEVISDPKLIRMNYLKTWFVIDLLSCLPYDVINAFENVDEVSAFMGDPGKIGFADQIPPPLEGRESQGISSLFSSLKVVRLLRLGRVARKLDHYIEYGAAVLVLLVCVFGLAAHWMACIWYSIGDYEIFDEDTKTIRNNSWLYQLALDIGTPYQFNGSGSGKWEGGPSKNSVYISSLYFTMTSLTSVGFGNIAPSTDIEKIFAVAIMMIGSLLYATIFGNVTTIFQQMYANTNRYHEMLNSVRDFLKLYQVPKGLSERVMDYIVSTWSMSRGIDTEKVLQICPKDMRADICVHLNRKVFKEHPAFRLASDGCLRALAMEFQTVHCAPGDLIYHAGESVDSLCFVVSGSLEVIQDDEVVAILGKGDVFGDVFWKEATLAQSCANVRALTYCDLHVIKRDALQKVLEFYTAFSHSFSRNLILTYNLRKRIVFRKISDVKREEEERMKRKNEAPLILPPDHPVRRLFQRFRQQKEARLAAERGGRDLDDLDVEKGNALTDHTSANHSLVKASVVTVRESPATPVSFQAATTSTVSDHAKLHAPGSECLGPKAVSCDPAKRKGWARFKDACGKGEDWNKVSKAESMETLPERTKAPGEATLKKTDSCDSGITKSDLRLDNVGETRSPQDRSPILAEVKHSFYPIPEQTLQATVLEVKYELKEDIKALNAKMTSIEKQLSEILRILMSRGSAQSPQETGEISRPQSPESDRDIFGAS
Chain of UniProt P11473 (whole entry, looked up): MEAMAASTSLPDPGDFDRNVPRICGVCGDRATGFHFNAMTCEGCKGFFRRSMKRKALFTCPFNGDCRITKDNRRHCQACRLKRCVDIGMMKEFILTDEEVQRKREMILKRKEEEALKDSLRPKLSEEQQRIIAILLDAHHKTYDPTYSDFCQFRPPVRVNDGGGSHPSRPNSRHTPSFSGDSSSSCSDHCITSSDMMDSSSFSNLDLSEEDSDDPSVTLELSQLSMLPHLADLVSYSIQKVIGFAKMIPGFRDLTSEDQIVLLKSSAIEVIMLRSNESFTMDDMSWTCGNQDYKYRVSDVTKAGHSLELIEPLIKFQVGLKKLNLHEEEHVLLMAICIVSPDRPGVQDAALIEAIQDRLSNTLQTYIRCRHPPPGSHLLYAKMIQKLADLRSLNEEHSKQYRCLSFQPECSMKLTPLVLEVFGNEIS

SMILES | target | assay | system | conditions | EC50
CCC1=C(O)c2c(oc(-c3csc4cc(O)ccc34)cc2=O)C(CC)(CC)C1=O | Tubulin alpha-1B chain/TUBB2B |  |  |  | 5500 nM
CCCC[C@H](NC(=O)[C@H](CO)NC(=O)[C@H](Cc1ccc(O)cc1)NC(=O)[C@H](CO)NC(C)=O)C(=O)N[C@@H](C)C(=O)N[C@@H](Cc1c[nH]cn1)C(=O)N[C@H](Cc1ccccc1)C(=O)N[C@@H](CCCNC(=N)N)C(=O)N[C@@H](Cc1c[nH]c2ccccc12)C(=O)NCC(=O)N[C@@H](CCCCN)C(=O)N1CCC[C@H]1C(=O)N[C@H](C(N)=O)C(C)C | Mc1r |  |  |  | 0.053 ± 0.011 nM
N=C(N)NCCC[C@H](NC(=O)[C@H](Cc1ccccc1)NC(=O)[C@@H](N)Cc1cnc[nH]1)C(=O)N[C@@H](Cc1c[nH]c2ccccc12)C(=O)O | GPR139 (Homo sapiens, UniProt Q6DWJ6) | calcium signal, agonist, fluorescence |  |  | 3980 nM
CSCC[C@H](NC(=O)[C@H](CO)NC(=O)[C@H](Cc1ccc(O)cc1)NC(=O)[C@H](CO)NC(C)=O)C(=O)N[C@@H](CCC(=O)O)C(=O)N[C@@H](Cc1c[nH]cn1)C(=O)N[C@@H](Cc1ccccc1)C(=O)N[C@@H](CCCNC(=N)N)C(=O)N[C@@H](Cc1c[nH]c2ccccc12)C(=O)NCC(=O)N[C@@H](CCCCN)C(=O)N1CCC[C@H]1C(=O)N[C@@H](C)C(N)=O | Mc1r |  |  |  | 47 ± 58 nM
CCc1c(C)nc(-n2nc(C)cc2NC(=O)c2ccccc2SC)[nH]c1=O | Tubulin alpha-1A/beta chain (Sus scrofa, UniProt P02550+P02554) | tubulin polymerization, promoter, turbidity at 340 nm | porcine tubulin | 37 °C, added: 3 mg/mL tubulin | 11000 ± 3200 nM
CCCCNc1cc2ccccc2nc1N | TLR8 | reporter gene, agonist |  |  | 4280 nM
CCOC(=O)NC(=O)C(c1ccccc1)c1ccccc1 | Grm1 (Rattus norvegicus, UniProt P23385) | calcium response, positive allosteric modulator | BHK expressing mGluR1a | added: glutamate EC20 | 224 ± 32.6 nM
Cc1nc2cc(OCCCCN3CCN(c4cccc5[nH]c(=O)oc45)CC3)ccc2s1 | DRD2 | cAMP, agonist, luciferase |  |  | 0.27 nM
CCCCC[C@H](O)/C=C/[C@H]1CCC(=O)[C@@H]1CCCCCCC(=O)O | Ptger2 | reporter gene, agonist |  |  | 37.2 nM
Nc1nc(F)nc2c1ncn2[C@@H]1O[C@H](COP(=O)(O)OP(=O)(O)O)[C@@H](O)[C@@H]1O | Ribonucleoside-diphosphate reductase large subunit (Homo sapiens, UniProt P23921) |  |  |  | 5200 ± 1200 nM
CCCC[C@H](NC(=O)[C@H](CO)NC(=O)[C@H](Cc1ccc(O)cc1)NC(=O)[C@H](CO)NC(C)=O)C(=O)N[C@@H](CCC(=O)O)C(=O)N[C@@H](Cc1c[nH]cn1)C(=O)N[C@H](Cc1ccccc1)C(=O)N[C@@H](CCCNC(=N)N)C(=O)N[C@@H](Cc1c[nH]c2ccccc12)C(=O)NCC(=O)N[C@@H](C)C(=O)N1CCC[C@H]1C(=O)N[C@H](C(N)=O)C(C)C | Mc1r |  |  |  | 0.01 ± 0.003 nM
Cc1nc(N)sc1CCCNC(=N)NCCCCCCCCCCCCN | HRH3 | GTPγS binding, agonist |  | cell membranes | 1320 nM
CCCC[C@H](NC(=O)[C@H](CO)NC(=O)[C@H](Cc1ccc(O)cc1)NC(=O)[C@H](CO)NC(C)=O)C(=O)N[C@@H](CCC(=O)O)C(=O)N[C@@H](Cc1c[nH]cn1)C(=O)N[C@H](Cc1ccccc1)C(=O)N[C@@H](C)C(=O)N[C@@H](Cc1c[nH]c2ccccc12)C(=O)NCC(=O)N[C@@H](CCCCN)C(=O)N1CCC[C@H]1C(=O)N[C@H](C(N)=O)C(C)C | Mc1r |  |  |  | 0.14 ± 0.08 nM
CCC#CC[C@H](C)[C@H](O)/C=C/[C@H]1CCC(=O)N1CCCCCCC(=O)O | Ptger2 | reporter gene, agonist |  |  | > 10000 nM
CSCC[C@H](NC(=O)[C@H](CO)NC(=O)[C@H](Cc1ccc(O)cc1)NC(=O)[C@H](CO)NC(C)=O)C(=O)N[C@@H](CCC(=O)O)C(=O)N[C@@H](Cc1c[nH]cn1)C(=O)N[C@@H](Cc1ccccc1)C(=O)N[C@@H](CCCNC(=N)N)C(=O)N[C@@H](C)C(=O)NCC(=O)N[C@@H](CCCCN)C(=O)N1CCC[C@H]1C(=O)N[C@H](C(N)=O)C(C)C | Mc1r |  |  |  | 17700 ± 4860 nM
O=C(O)Cc1c[nH]c2ccccc12 | PIN8 (Arabidopsis thaliana, UniProt Q9LFP6, N223A) | transport current, substrate, SSM electrophysiology | proteoliposomes |  | 444000 ± 205000 nM
O=c1c(O)c(-c2ccc(O)c(O)c2)oc2cc(O)cc(O)c12 | Kcnh1 | deactivation time constant, inside-out patch clamp | Xenopus oocytes |  | 6600 ± 3800 nM
CCC1=C(O)c2c(oc(-c3ccc(O)c4ccccc34)cc2=O)C(CC)(CC)C1=O | Tubulin alpha-1B chain/TUBB2B |  |  |  | 3400 nM
CSCC[C@H](NC(=O)[C@H](CO)NC(=O)[C@H](C)NC(=O)[C@H](CO)NC(C)=O)C(=O)N[C@@H](CCC(=O)O)C(=O)N[C@@H](Cc1c[nH]cn1)C(=O)N[C@@H](Cc1ccccc1)C(=O)N[C@@H](CCCNC(=N)N)C(=O)N[C@@H](Cc1c[nH]c2ccccc12)C(=O)NCC(=O)N[C@@H](CCCCN)C(=O)N1CCC[C@H]1C(=O)N[C@H](C(N)=O)C(C)C | Mc1r |  |  |  | 220 ± 78 nM
Cc1nc(N)sc1CCCNC(=N)NCCCCCCCCCCCCNC(=N)N | HRH3 | GTPγS binding, agonist |  | cell membranes | 34700 nM

SMILES | target | assay | system | conditions | EC50
O=c1[nH]c2cc(OCCCCN3CCN(c4cccc(Cl)c4Cl)CC3)ccc2s1 | DRD2 | cAMP, agonist, luciferase |  |  | 5.2 nM
Cc1cnc(Nc2ccc(N3CCN(C)CC3)cc2)nc1Nc1cccc(S(=O)(=O)NC(C)(C)C)c1 | Fibroblast growth factor 14, homodimer (Homo sapiens, UniProt Q92915) | FGF14 homodimerisation, enhancer, luciferase complementation |  | 10-point dose response | 7600 nM
CC(C)c1nc2cc(OCCCCN3CCN(c4cccc5c4OCCO5)CC3)ccc2s1 | DRD2 | cAMP, agonist, luciferase |  |  | < 10 nM
BP(=O)(OC[C@H]1O[C@@H](n2ccc(=O)[nH]c2=O)[C@H](O)[C@@H]1O)OP(=O)(O)OP(=O)(O)OP(=O)(O)OC[C@H]1O[C@@H](n2ccc(=O)[nH]c2=O)[C@H](O)[C@@H]1O (stereo partly drawn) | P2Y purinoceptor 6 (Rattus norvegicus, UniProt Q63371) | calcium signal, agonist, fluorescence |  |  | 3900 nM
CCCCCC(O)C=CC1CCC(=O)N1CCCCCCC(=O)O (stereo not drawn) | Ptger2 | cAMP, agonist |  |  | > 10000 nM
CSCC[C@H](NC(=O)[C@H](CO)NC(=O)[C@H](Cc1ccc(O)cc1)NC(=O)[C@H](CO)NC(C)=O)C(=O)N[C@@H](CCC(=O)O)C(=O)N[C@@H](Cc1c[nH]cn1)C(=O)N[C@@H](Cc1ccccc1)C(=O)N[C@@H](CCCNC(=N)N)C(=O)N[C@@H](Cc1c[nH]c2ccccc12)C(=O)NCC(=O)N[C@@H](C)C(=O)N1CCC[C@H]1C(=O)N[C@H](C(N)=O)C(C)C | Mc1r |  |  |  | 12 ± 3.4 nM
CCCNc1nc2c(N)nc3ccccc3c2s1 | TLR8 | reporter gene, agonist |  |  | 3940 nM
C[C@H](CCC(=O)N[C@@H](Cc1ccc(O)cc1)C(=O)O)[C@H]1CC[C@H]2[C@@H]3[C@H](O)C[C@@H]4C[C@H](O)CC[C@]4(C)[C@H]3CC[C@]12C | Bile acid receptor, ligand-binding domain (NR1H4, Homo sapiens, UniProt Q96RI1) | coactivator recruitment, agonist, LanthaScreen TR-FRET |  | 5.5 h, added: SRC1 peptide | 2800 nM
C[C@H](C(=O)O)c1ccc(-c2ccccc2)c(F)c1 | FABP1 (Homo sapiens, UniProt P07148) | DAUDA displacement, fluorescence |  | added: FABP1 0.3 µM, DAUDA 0.5 µM | 3300 ± 1400 nM
CSCC[C@H](NC(=O)[C@H](CO)NC(=O)[C@H](Cc1ccc(O)cc1)NC(=O)[C@H](CO)NC(C)=O)C(=O)N[C@@H](CCC(=O)O)C(=O)N[C@@H](Cc1c[nH]cn1)C(=O)N[C@@H](Cc1ccccc1)C(=O)N[C@@H](CCCNC(=N)N)C(=O)N[C@@H](Cc1c[nH]c2ccccc12)C(=O)NCC(=O)N[C@@H](CCCCN)C(=O)N[C@@H](C)C(=O)N[C@H](C(N)=O)C(C)C | Mc1r |  |  |  | 26 ± 25 nM
O=c1cc(-c2ccc(O)c(O)c2)oc2cc(O)cc(O)c12 | Kcnh1 | V1/2 shift, inside-out patch clamp | Xenopus oocytes |  | 4700 ± 2400 nM
Clc1nc2cc(OCCCCN3CCN(c4cccc(Cl)c4Cl)CC3)ccc2s1 | DRD2 | cAMP, agonist, luciferase |  |  | 43 nM
CCCCC[C@H](O)/C=C/[C@H]1CCC(=O)[C@@H]1C/C=C\CCCC(=O)O | Ptger2 | reporter gene, agonist |  |  | 38.7 nM
Cc1nc2cc(OCCCCN3CCCN(c4cccc(Cl)c4Cl)CC3)ccc2s1 | DRD2 | cAMP, agonist, luciferase |  |  | 1.9 nM
CCCCCCCC(=O)OC[C@H](COP(=O)(O)O[C@H]1[C@H](O)[C@@H](O)[C@H](OP(=O)(O)O)[C@@H](O)[C@H]1O)OC(=O)CCCCCCC | Trpv1 (Rattus norvegicus, UniProt O35433, R721A) | agonist, inside-out patch clamp | plasma membrane inner leaflet |  | ~0.007 mol %
CC(C)c1nc2cc(OCCCCN3CCN(c4cccc(Cl)c4Cl)CC3)ccc2s1 | DRD2 | cAMP, agonist, luciferase |  |  | 72 nM
C=C1/C(=C\C=C2/CCC[C@]3(C)[C@@H]([C@H](C)CC(=O)O)CC[C@@H]23)C[C@@H](O)C[C@@H]1O | Vitamin D3 receptor (VDR, Homo sapiens, UniProt P11473) | reporter gene, agonist, luciferase |  |  | 2890 nM
Cc1nc2cc(OCCCCN3CCN(c4cccc5c4OCCO5)CC3)ccc2s1 | DRD2 | cAMP, agonist, luciferase |  |  | 0.64 nM
NC[C@H](O)c1ccc(O)c(O)c1 | ADRA2C (Homo sapiens, UniProt P18825) | G protein activation, agonist, BRET, item: Gαi1 | HEK293T, transfected | Emax below 50% | 90 ± 30 nM
